Experimental data from different studies.
A part holds a random share of what one study measured. Substitutions count along the parent as printed.

Series 1
Target: Sox-I, HMG box (Salpingoeca helianthica)
Technique: Spec-seq
Molecule type: double-stranded DNA, one strand shown
Sample: in vitro
Concentration: not given
Notes: whole probe, mean of replicates
Baseline: not given
Reading: lower = stronger binding
Quantity: relative binding energy
All sequences stand within: GAGTCGTCTCGTCAGCAC … CCGTAGAGCACTCAGGTC
Construct (chain): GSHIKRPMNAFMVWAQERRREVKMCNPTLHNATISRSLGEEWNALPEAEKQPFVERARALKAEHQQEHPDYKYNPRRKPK
CATCCGT: 1.01 ln ratio
CATGGGC: 1.1 ln ratio
CATGCAA: 0.916 ln ratio
ATACGTT: 0.0834 ln ratio
CCAGGTT: 0.92 ln ratio
CATCAAT: 0.405 ln ratio
TGTCGTT: 0.52 ln ratio
GATTGTT: -1.86 ln ratio

Series 2
Target: PABPC1L2, full length, GST fusion (mouse, UniProt A0ABA7IW68)
Technique: RNAcompete
Molecule type: RNA
Sample: in vitro
Concentration: 20 nM
Notes: 7-mer, probes averaged, single round
Baseline: mean of 7-mers
Reading: higher = stronger binding
Quantity: 7-mer Z-score
Construct (chain): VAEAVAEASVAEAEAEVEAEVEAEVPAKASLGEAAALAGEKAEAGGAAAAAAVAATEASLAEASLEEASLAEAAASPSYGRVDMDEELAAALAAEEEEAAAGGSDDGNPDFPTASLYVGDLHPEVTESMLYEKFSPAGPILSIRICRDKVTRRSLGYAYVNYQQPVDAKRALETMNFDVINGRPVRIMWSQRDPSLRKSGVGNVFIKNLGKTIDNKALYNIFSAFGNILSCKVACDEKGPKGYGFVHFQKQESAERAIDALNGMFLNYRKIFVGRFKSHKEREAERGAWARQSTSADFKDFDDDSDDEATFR
GUUGAUA: -0.104
AUUCGCU: -0.311
CGCCAAU: -0.32
UACAUUG: -0.195
CAGUGCU: -0.182
UGACAAG: 0.0877
CGUACGG: 0.00798
ACGUGUG: -0.144

Series 3
Target: RNA binding protein fox-1 homolog 2, RRM domain, GST-SBP tag (RBFOX2, Homo sapiens, UniProt O43251-10, residues 100-194)
Technique: RNA Bind-n-Seq
Molecule type: RNA
Sample: in vitro
Concentration: 365 nM
Notes: natural RNA segment, single round, ends assumed
Baseline: no-protein control
Reading: higher = stronger binding
Quantity: RBNS enrichment (R)
All sequences stand within: GGGAGUUCUACAGUCCGACGAUC … UGGAAUUCUCGGGUGCCAA
Target sequence (chain): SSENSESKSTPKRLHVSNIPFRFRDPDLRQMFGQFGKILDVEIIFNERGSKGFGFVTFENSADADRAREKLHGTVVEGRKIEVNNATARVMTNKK
AGGCUUAGUUGAGUGAGCUGACCAAUAUCACCCAGCCAGUAUGUGAUAAAACUGAUUCUGACCCACACAGUUUGAUUCUAGAGCCUGUUCUGACUACUGUGCUAAGGUGU: 0.724
CUGGAAAACUAUCAGAAGACAAAGUUUGACACCUUGAUACCCACUCUCUGUGAAUACCUACCCCCUUCUGGCCACGGUGCCAUACCUGUUUCUUCCUGUGACUGUAGAGA: 0.526
AUUUUAUCUAAAUGUCUCCUUUCAUCUGUGGGAAAGCUAUAGCUGAGUGUCUUUAGCCCCUGCCCUACUUUUCCCUCUCUGACUUUUUUCCCAGGUAGCUUAGUGUUUAA: 0.411
CCUAAGUAAAUUCUGCAUUCUCAUAGUUGUGUCCCAAUUAACCAAAAAGUUGUCUCUAGAGAAAAUACUAUUACAAUCUAAGCAUGAUUCUCUGUGGAGACUAAUUUUUU: 5.46
AUAACUAUCCUCCUCAUAUAAUACUAUUCUUUUUGACACCAUUUGAAGGAACCAAUAUUUGGACCUUAUUUUGAGGUUGUCUGUCUCGAAGAAAAAGAAAAUAAAAUGUA: 0.633
GCAGGUAAACUGUAUAGGUAUAGAGUCCUCCAGUGCUCUGAAGAGCCCUGCCUCUAUGCACGCCCCCGGCAAAGGGCUUGUCAGUAGGUCCCCCUCAACUCCAUACUCAA: 0.671
CUCUGAGAUCUUGGGUGACUUCUCAUCACUCUGGACCUCCAUUCCUGUGAAGUGACAGGUGUGGACCCUGAGGGUGCGGUGGUGAGCACACUGUCUCCUGCUGGCAUUCA: 0.284
CCCCAAAGCCCUGUGAACUGCCUGCUGUCCUGUGAACUGCCUGCUGCCCUGUGAGGUGUGGGAGCCCUGAUGCUGCCGUGUGAUGUUUCAAUAAAGGUGGAUCUCACUGU: 1

Single results of other studies
Parent: viral docking peptide; KKAKRRLFTISDS
R5K F8L  normalised enrichment score (CCNB1, cyclin fold, Cln2 fusion (human); yeast growth competition, sequencing; yeast; weak parent motif; baseline: not given, higher = stronger binding): 0.0943

Excerpt of the above (series 1):
CATCAAT: 0.405 ln ratio
TGTCGTT: 0.52 ln ratio
GATTGTT: -1.86 ln ratio
